# Assay results pooled from the literature.
# Every numbered part comes from another study and shows a few of its results, in no order. Positions count from the first letter of the parent shown.

# Study 1 — target: UBE2E1 UBC core domain (UniProt P51965); method: yeast two-hybrid; matrix: yeast; notes: mostly zero background; baseline: not given; direction: higher = stronger interaction
# Chain of UniProt P51965 (whole entry, looked up): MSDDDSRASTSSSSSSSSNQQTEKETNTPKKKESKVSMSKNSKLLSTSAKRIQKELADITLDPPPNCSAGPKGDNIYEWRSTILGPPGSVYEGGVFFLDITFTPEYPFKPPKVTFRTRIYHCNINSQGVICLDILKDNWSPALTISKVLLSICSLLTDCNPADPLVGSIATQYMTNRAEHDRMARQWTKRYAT
# B1: SYTL4 RING domain (UniProt Q96C24); chain RGSQHYSDRTCARCQESLGRLSPKTNTCRGCNHLVCRDCRIQESNGTWRCKVCAKEIELKKAT
# B2: ZMIZ2 RING domain (UniProt Q8NF64); chain GTIPGTPGPNGEDGVEQTAIKVSLKCPITFRRIQLPARGHDCRHIQCFDLESYLQLNCERGTWRCPVCNKTALLEGLEVDQYMLGILIYIQNSDYEEITIDPTCSWK
# B3: UBOX5 RING domain (UniProt O94941); chain EQPGSILGPECASCKRVFSPYFKKEPVYQLPCGHLLCRPCLGEKQRSLPMTCTACQRPVASQDVLR
# B4: DZIP3 RING domain (UniProt Q86Y13); chain PDEEEEEEEPCVICHENLSPENLSVLPCAHKFHAQCIRPWLMQQGTCPTCRLHVLLPEEFP
Sequence,lacZ reporter activity
KLRKLKEAMLCMVCCEEEINSTFCPCGHTVCCESCAAQLQSCPVCRSRVEHVQHVY (MYLIP RING domain (UniProt Q8WY64)),0
B1 (SYTL4 RING domain),0
KETIKKTTKPCPRCHVPVEKNGGCMHMKCPQPQCRLEWCWNCGCEWNRVCMG (PRKN RING domain (UniProt O60260)),0
FDGDVDPDLKCALCHKVLEDPLTTPCGHVFCAGCVLPWVVQEGSCPARCRGRLSAKELN (PDZRN3 RING domain (UniProt Q9UPQ7)),0
B2 (ZMIZ2 RING domain),0
B3 (UBOX5 RING domain),0
B4 (DZIP3 RING domain),0
AVPSGLEENLCKICMDSPIDCVLLECGHMVTCTKCGKRMNECPICRQYVIRAVHVF (RFFL RING domain (UniProt Q8WZ73)),0

# Study 2 — method: protein binding microarray; form: double-stranded DNA, one strand shown; matrix: in vitro; tested at: not given; baseline: not given; direction: higher = stronger binding
# Target: Histone acetyltransferase KAT6A, winged helix 1, GST fusion (KAT6A, Homo sapiens, UniProt Q92794, residues 1-85)
# Notes: 8-mer, flanks averaged, mean of 2 arrays, mostly near background
# Residues (chain): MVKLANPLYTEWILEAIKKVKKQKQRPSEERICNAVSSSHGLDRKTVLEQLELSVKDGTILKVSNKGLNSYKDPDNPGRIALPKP
Sequence,E-score
ATGTGCTA,0.0437
GACAAGGC,0.121
GACTTATA,-0.185
CAGTTGGG,-0.219
ACACCAGA,-0.331
CTATCGGA,0.105
AGCCGGCA,0.351
AGCAACTC,-0.0936
AGCACCAT,-0.18
AGGGATTC,-0.118
GAGCGGCC,0.377
GCCGAGCA,0.21
CACGGGGA,0.273
CCGAGTCG,0.132
AGGTCAGC,-0.0251
AGCCACCC,0.0476
AGTCGCCC,0.0404
CCCATTCC,-0.242
GCTACAGA,-0.196
CTGGTAAC,-0.0794
CCTGTCCG,0.026
ACTGGGAA,-0.183

# Study 3 — method: RNA Bind-n-Seq; form: RNA; matrix: in vitro; tested at: 365 nM; baseline: no-protein control; direction: higher = stronger binding
# Target: RNA binding protein fox-1 homolog 2, RRM domain, GST-SBP tag (RBFOX2, Homo sapiens, UniProt O43251-10, residues 100-194)
# Notes: natural RNA segment, single round, ends assumed
# Constant ends, left off below: GGGAGUUCUACAGUCCGACGAUC … UGGAAUUCUCGGGUGCCAA
# Residues (chain): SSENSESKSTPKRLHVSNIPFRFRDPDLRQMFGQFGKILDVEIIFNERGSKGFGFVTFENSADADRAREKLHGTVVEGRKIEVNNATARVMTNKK
Sequence,RBNS enrichment (R)
AUUAAAAUAACUAUCAGGCAGAAGAAUCUUUCUUCUUGCCUAGGAUUUCAGCCAUGUGCGUGCGCUCUCUCUCUCUCUCUCUCUCUCUCUCUCUCUCUCUCUCUCUCUCU,1.01
GGACCGUGUAGAUAUAACUGGAUAUACGGAUUUUUCUCUUUGUGCAGGCUUCUUAUGCCGUUGGUAUACAGGGCAGGAAAGAGAGGAAUAAAGGGAGAGAGCAGUGUGGA,0.468
ACAGGCCUGGUGUGGUUUGUUCUGGUCUCAUUCAGGUUUAGGGGUGCUCCUGCACAGGCUUCUGCACCUCCAAGCACAGCUGAUCUGAUCCAAGGCUGUUGGGCCUCUCA,0.336
UACCAGUCACCAAAGUUUCCUGUUAUAAUUUCUUUUAGCAGACAAGUUAUAAGUCAGAUUUAAUUAGCAUCAGAGUUGAUUUUAUAUUAGUCAGAUUUUGGAUCAUCACA,0.491
UGCAAGCCCGUAACCCUCCAGAGCUCCUUCACACUGCGCUCUCCAAACCACCCCAUCCUCACAGCGAGCUUAUCCCUACCUCUGCGUGACACUGAGCAGGCAGAUUAGCA,1.67
ACAGGAUUUGAUGUUAUUAACAUUUGUCGUCAUACCUCAUAAGUCGGUCCCUGCCUUGUCUGUCUAGGCCCAUUUGGGGCUCCCUGUGAGUGAUUCCCCUCUCUCUGCUA,0.478
GUCUGGCUCAAGUGGUGGAAGAGUGAGGGAGUCUGCAGUUUGUAAGUCUCGUUCUGUUGUGUUCUGAGAAGAUGCCUGAGGCAGUAUGGGAGUUUCAACACCCCUGCUGU,0.732
UCAGUGUCUUUUCAGCACUUUGAGCAUUUACUUGGCUCAUUUAGUCUUCCUUUUGUAGCGCAUGGUUGGGAGGAAAAAGUGCAUGCAUCAUUCCUUCACUCUUCUCUUUU,17.5

# Study 4 — target: CCNA1, cyclin fold, Cln2 fusion (human); method: yeast growth competition, sequencing; matrix: yeast; notes: strong parent motif; baseline: not given; direction: higher = stronger binding
# Parent: RBL2 docking peptide (human); STTRRRLFVENDS
Substitution,normalised enrichment score
R4I,0.477
L7Q,0.114
D12H,0.432
R5P,0.466
T3N,0.225
D12C,0.43
T2G,0.822
T3M,0.196
E10N,0.668
N11R,0.724
V9C,1.01
F8H,0.0898
D12P,0.704
R5M,0.323
N11I,0.233
E10S,0.464
R4P,0.0841
T3W,0.252
D12I,0.428
R6T,0.212
L7I,0.62
F8I,0.345
T2C,0.317
F8R,0.273
T3C,0.955

# A few entries again (study 4):
Substitution,normalised enrichment score
T2G,0.822
T3M,0.196
E10N,0.668
N11R,0.724
V9C,1.01
F8H,0.0898
D12P,0.704
R5M,0.323
